Values quoted from earlier work that unrelated publications cite.
Protocols differ between the studies behind these lines.
Chain of UniProt P33535 (whole entry, looked up): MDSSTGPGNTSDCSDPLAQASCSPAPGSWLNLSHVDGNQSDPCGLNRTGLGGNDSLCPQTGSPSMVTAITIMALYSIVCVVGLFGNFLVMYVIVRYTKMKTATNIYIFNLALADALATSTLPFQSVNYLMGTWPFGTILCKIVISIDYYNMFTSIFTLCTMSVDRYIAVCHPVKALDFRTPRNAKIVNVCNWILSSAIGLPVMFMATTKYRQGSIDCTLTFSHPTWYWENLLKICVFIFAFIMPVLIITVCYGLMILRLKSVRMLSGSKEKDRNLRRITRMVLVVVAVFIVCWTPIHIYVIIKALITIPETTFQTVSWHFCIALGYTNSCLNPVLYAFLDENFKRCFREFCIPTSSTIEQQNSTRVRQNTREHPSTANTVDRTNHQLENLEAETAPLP
Chain of UniProt P30542 (whole entry, looked up): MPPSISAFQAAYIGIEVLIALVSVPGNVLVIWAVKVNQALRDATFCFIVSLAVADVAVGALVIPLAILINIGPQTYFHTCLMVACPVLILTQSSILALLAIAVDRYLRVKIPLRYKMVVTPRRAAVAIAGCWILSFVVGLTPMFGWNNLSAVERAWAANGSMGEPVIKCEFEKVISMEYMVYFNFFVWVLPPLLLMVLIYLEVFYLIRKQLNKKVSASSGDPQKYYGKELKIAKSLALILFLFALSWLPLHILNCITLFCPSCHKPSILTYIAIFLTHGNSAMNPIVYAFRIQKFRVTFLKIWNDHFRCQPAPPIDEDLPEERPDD

Substance | tested on | assay | test system | conditions | scale | endpoint | value
maraviroc | – | – | human | – | reference: vaginal tissue over blood plasma | AUC(0-24h) ratio | 1.9
buprenorphine | – | – | human | oral, dose not given, together with: delavirdine co-administration | – | AUC(0-24h) increase | 325%
R(-)-PIA | ADORA1 (Homo sapiens, UniProt P30542) | – | – | – | – | IC50 | 830 nM
buprenorphine | – | – | human | dose not given, together with: delavirdine | reference: compound alone | AUC(0-24h) increase | 325%
H-Bcp-Tic-OH | Oprm1 (Rattus norvegicus, UniProt P33535) | binding | – | – | reference: Ki mu over Ki delta | selectivity ratio | 3510

Some of these lines once more:
Substance | tested on | assay | test system | conditions | scale | endpoint | value
buprenorphine | – | – | human | oral, dose not given, together with: delavirdine co-administration | – | AUC(0-24h) increase | 325%
